Results gathered from unrelated publications.
Compare with care: the assays were run in different laboratories. Numbers after ± are the reported error.

O=[N+]([O-])c1ccc(-c2ccc(O)cc2)c2cccnc12 — AUC(0-t) (ICR mice male, plasma; intravenous, 1 mg/kg): 140 ng·h/mL
Cl.N=C(CC(O)c1cc2c(F)cc(F)cc2c2cc(C(F)(F)F)ccc12)Nc1ccc(Br)cc1 (stereo not shown) — AUC(0-t) (Plasmodium berghei-infected mice, whole blood dried spots; oral, 50 mg/kg, 0 to 24 h): 49000 ± 1770 ng·h/mL
Cc1ncccc1-c1cnc(NCc2c(F)ccc3c2CCO3)n2cnnc12 — AUC(0-t) (female CB17 SCID mice, HT-1376 xenograft, plasma; 75 mg/kg, day 1): 13100 ng·h/mL
Cc1c(C(=O)O)ccc2c3n(nc12)[C@@H]1[C@H](C3)N(CC2CC2)[C@@]2(C(=O)Nc3cc(Cl)ccc32)[C@H]1c1cccc(Cl)c1F — AUC(0-t) (female BALB/c nude mice, SJSA-1 xenograft, plasma; oral, 1 mg/kg twice daily, 2 doses, mean): 24 µM·h
CCc1nc(C(N)=O)c(Nc2ccc(N3CCC(N4CCN(C)CC4)CC3)c(OC)c2)nc1NC1CCOCC1 — AUC(0-t) (female FVB mice, MATE1 knockout, plasma; oral, 10 mg/kg, single dose): 5480 ± 323 ng·h/mL
CCN1CCN(Cc2ccc(NC(=O)c3ccc(C)c(NC(=O)c4cncc(-c5cccs5)c4)c3)cc2C(F)(F)F)CC1 — AUC(0-t) (C57BL/6 mice, epithelial lining fluid; intraperitoneal, 30 mg/kg): 8930 ng·h/mL
CCOC(=O)c1cc(Cl)cc(NC(=O)c2sc(Cl)cc2S(=O)(=O)N(C)c2ccc(OCC)c(OC)c2)c1 — AUC(0-t) (male C57BL/6 mice, brain; intraperitoneal, 10 mg/kg): 13.7 ng·h/g
CC1(C)CC[C@]2(C(=O)O)CC[C@]3(C)C(=CC[C@@H]4[C@@]5(C)C[C@@H](O)[C@H](OC(=O)/C=C/c6ccc(O)cc6)C(C)(C)[C@@H]5CC[C@]43C)[C@@H]2C1 (relative stereo) — AUC(0-t) (C57BL/6 mice, plasma; intraperitoneal, 85 µmol/kg single dose): 89.7 µM·h
CN1CCC[C@H](CN2c3ccccc3Sc3ccccc32)C1.Cl — AUC(0-t) (ICR mice, fasted female, lymph node; oral, 16 mg/kg): 5700 ng·h/mL
Cc1cc(C)c(CNC(=O)c2cc(Cl)c3c(c2C)O[C@@](C)([C@H]2CC[C@H](N(C)C)CC2)O3)c(=O)[nH]1 — AUC(0-t) (female CB17 SCID mice, HT-1376 xenograft, plasma; 75 mg/kg, day 1): 7600 ng·h/mL

Excerpt of the above:
O=[N+]([O-])c1ccc(-c2ccc(O)cc2)c2cccnc12 — AUC(0-t) (ICR mice male, plasma; intravenous, 1 mg/kg): 140 ng·h/mL
CCc1nc(C(N)=O)c(Nc2ccc(N3CCC(N4CCN(C)CC4)CC3)c(OC)c2)nc1NC1CCOCC1 — AUC(0-t) (female FVB mice, MATE1 knockout, plasma; oral, 10 mg/kg, single dose): 5480 ± 323 ng·h/mL
